# Measurements gathered from unrelated publications.
# Each line is one published result; not all experiments were run side by side. ± gives the spread as reported.
# CNR2: Cannabinoid receptor 2 (CNR2, Homo sapiens, UniProt P34972)
# UniProt P34972, sequence (whole entry, unmodified, looked up): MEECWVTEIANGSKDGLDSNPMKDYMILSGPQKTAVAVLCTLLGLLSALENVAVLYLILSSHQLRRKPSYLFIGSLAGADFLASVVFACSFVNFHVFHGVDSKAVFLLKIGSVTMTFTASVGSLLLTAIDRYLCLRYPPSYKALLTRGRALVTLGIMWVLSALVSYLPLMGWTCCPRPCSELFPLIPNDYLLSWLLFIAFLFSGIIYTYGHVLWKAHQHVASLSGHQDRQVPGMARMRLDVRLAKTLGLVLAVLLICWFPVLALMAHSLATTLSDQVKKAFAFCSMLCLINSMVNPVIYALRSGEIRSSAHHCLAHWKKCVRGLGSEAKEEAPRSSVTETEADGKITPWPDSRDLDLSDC
Structure (SMILES),target,test,system,setting,endpoint,value
CC(C)[C@H](N=C(NS(=O)(=O)c1ccc(Cl)cc1)N1C[C@H](c2ccccc2)C(c2ccc(Cl)cc2)=N1)C(N)=O,CNR2,,,,IC50,162 ± 17 nM
CC(C)(CCCCCC#N)c1cc(O)c2c(c1)OC(C)(C)[C@@H]1CC[C@@H](CO)C[C@@H]21,CNR2,binding,,,Ki,0.37 nM
Cc1c(C(=O)NN2CCS(=O)(=O)CC2)nn(-c2ccc(Cl)cc2Cl)c1-c1ccc(C#CCCC#N)cc1,CNR2,,,,IC50,1300 ± 670 nM
"CC(C)(CCCCCCN=C=S)c1cc(O)c2c(c1)OC(C)(C)C1CCC(CO)CC21 (single isomer, unassigned; (-))",CNR2,"binding, radioligand displacement",,"apparent Ki, added: [3H]-CP55940",Ki,1.51 nM
CCC(=C(c1ccc(OCCN2CCCC2)cc1)c1ccc(OCCN2CCCC2)cc1)c1ccccc1,CNR2,"adenylyl cyclase activity, inverse agonist",CHO expressing human CB2,added: forskolin 10 µM,IC50,134 ± 397 nM
CCCCCCCCCCCCC/C=C/CCC(=O)N[C@H](CO)COC,CNR2,"cAMP, agonist",,,EC50,1800 nM
CC1(Cc2ccccc2)COc2ccc(C(=O)N3CCCCC3)cc21 (stereo not drawn),CNR2,"GTPγS binding, agonist",,cell membranes,EC50,> 10000 nM
CC1(C)Oc2cc([C@]34CC5CC(C[C@@](N=[N+]=[N-])(C5)C3)C4)cc(O)c2[C@@H]2C[C@H](O)CC[C@H]21,CNR2,"cAMP inhibition, agonist",HEK293 expressing hCB2,added: forskolin,EC50,> 3000 nM
CCC/C=C/CC1(C)COc2cc(C(=O)N3CCCCC3)ccc21 (stereo not drawn),CNR2,"GTPγS binding, agonist",,cell membranes,EC50,48.9 nM
CCCCCn1cc(C(=O)C23CC4CC(CC(C4)C2)C3)c2ccccc21,CNR2,,,,IC50,1700 ± 863 nM
CCCCC/C=C\C/C=C\C/C=C\C/C=C\CCCC(=O)OC(CO)CO,"CNR2 (Homo sapiens, UniProt P34972, Q63R)","β-arrestin 2 recruitment, agonist, BRET",HEK293 coexpressing GRK3,,EC50,1350 nM
CC1(Cc2ccccc2)COc2cc(C(=O)N3CCCCC3)ccc21 (stereo not drawn),CNR2,"GTPγS binding, agonist",,cell membranes,EC50,128 nM

# A few entries again:
Structure (SMILES),target,test,system,setting,endpoint,value
CC1(Cc2ccccc2)COc2ccc(C(=O)N3CCCCC3)cc21 (stereo not drawn),CNR2,"GTPγS binding, agonist",,cell membranes,EC50,> 10000 nM
CC1(C)Oc2cc([C@]34CC5CC(C[C@@](N=[N+]=[N-])(C5)C3)C4)cc(O)c2[C@@H]2C[C@H](O)CC[C@H]21,CNR2,"cAMP inhibition, agonist",HEK293 expressing hCB2,added: forskolin,EC50,> 3000 nM
